Published values from different studies.
Each line is one published result; not all experiments were run side by side.
Target: Bone morphogenetic protein receptor type-1B (BMPR1B, Homo sapiens, UniProt O00238)

With `Cc1cnc2nc1Nc1cccc(c1)COC/C=C/COCc1cc(ccc1OCCN1CCOCC1)N2` the remaining binding was 82% (binding; 0.1 µM).
`C=CC(=O)N1Cc2nc(-c3cc(-c4cc(Cl)cnc4Cl)c(F)cc3F)n(-c3ccncn3)c2C1` has an inhibition of -4.8% (cell-free assay; 1 µM).
The remaining binding of `COc1c(Cl)cccc1Nc1c(-c2ccncc2C#C[C@@]2(C)CCCN2C(=O)/C=C/CN(C)C)[nH]c2c1C(=O)NCC2` is reported as 81% (cell-free assay, competition with immobilised ligand; 3 µM).
`CNC1C[S+]2CC[S+]3CC[S+](C1)[Ru-4]321([N]=C=S)[n]2c3ccc(OC)cc3c3c4c(c5cc(F)c[n+]1c5c32)C(=O)NC4=O` (centres unmarked) has a remaining binding of 100% (KinomeScan; 0.1 µM; baseline: untreated).
`COc1cc(Nc2nccc(-c3cnn4nc(OC)ccc34)n2)cc(C(F)(F)F)c1` gave a remaining binding of 79% (binding, competition with immobilised ligand; 1 µM).
`CCN1CCN(Cc2ccc(C(=O)Nc3ccc(C)c(NCc4cnc5[nH]ccc5c4OC)c3)cc2C(F)(F)F)CC1` has a remaining binding of 96% (binding, competition with immobilised ligand; 1 µM).
`Nc1ncc(-c2cc(-c3cnn(CC(F)(F)F)c3)ncc2F)nc1C(=O)NC1CNCC(F)C1` (centres unmarked) gave a remaining activity of 108% (enzyme activity; 1 µM; baseline: DMSO control).
For `Nc1ncc2c(n1)-c1c([nH]c3ccc(C4=CCOCC4)cc13)CCC2`, the remaining binding was 82% (binding, competition with immobilised ligand; 1 µM).
`Cc1ccc(-c2c(/C=C(\C#N)C(=O)NC(C)C)n(CCCO)c3ncnc(N)c23)cc1` gave a remaining binding of 55% (cell-free assay, competition with immobilised ligand; 1 µM).
`Cc1nc2c(F)cc(-c3nc(Nc4ccc(CNC(=O)CCCCCCC(=O)NO)cc4)ncc3F)cc2n1C(C)C` gave an inhibition of 21% (enzyme activity, inhibitor; 1 µM).
The remaining binding of `CNC(=O)C1CCN(c2cc(C)c(F)cc2NC(=O)c2ccc(-c3cc(O)ccc3C)c(C)c2)CC1` is reported as 64% (binding, competition with immobilised ligand; 1 µM).
The remaining binding of `C=CC(=O)N1CCc2ccc(-n3c(=O)ccc4cnc5ccc(-c6cnn(C)c6)cc5c43)cc21` is reported as 100% (KINOMEscan; 1 µM; baseline: DMSO control).
`NC(=O)C[C@H]1CCc2sc3ncnc(O[C@H]4CC[C@H](N5CCOCC5)CC4)c3c21` gave an inhibition of 6% (enzyme activity, inhibitor; 10 µM).
Under “activity vs control”, `CNC(=O)C[C@H](Cc1ccc(C#N)cc1)NC(=O)c1cc(-c2ccc(CN[C@H](C)c3ccc(C)cc3)o2)ccc1Cl` is recorded as 104% (enzyme activity, inhibitor; 1 µM).
With `CC(C)=CC1OC(C)(C)C2C=C3C(=O)C(Cl)=CC(O)C3C3C(O)C4OC4C(=O)C132` (centres unmarked) the remaining binding was 58% (cell-free assay, competition with immobilised ligand; 10 µM).
Under “activity vs control”, `O=C(Cc1ccc(OCc2ccccc2)cc1)NC1(C(=O)O)CCN(C(=O)c2ccc(-c3cccc(Cl)c3)cc2)CC1` is recorded as 107% (enzyme activity, inhibitor; 10 µM).
The remaining binding of `C=CC(=O)N1CCCC(n2c(=O)c3ncccc3n(Cc3ccc(Oc4ccccc4)cc3)c2=O)C1` (centres unmarked) is reported as 77% (cell-free assay, competition with immobilised ligand; 1 µM).
For `NC(=O)[C@@H](O)C[C@H]1CCc2sc3ncnc(O[C@H]4CC[C@H](N5CCOCC5)CC4)c3c21`, the inhibition was -5% (enzyme activity, inhibitor; 10 µM).
With `COc1cc(Nc2nc(C)cc(-c3cnn4nc(OC)ccc34)n2)cc(C(F)(F)F)c1` the remaining activity was 81% (inhibitor; 1 µM; baseline: control).
With `CN1CC[C@@H](COc2cnc(C#N)cc2-c2ccn3nc(NC(=O)C4CC4)cc3c2)C1` the inhibition was -2% (enzyme activity, inhibitor; 1 µM).

For quick reference, copied from above:
Under “activity vs control”, `CNC(=O)C[C@H](Cc1ccc(C#N)cc1)NC(=O)c1cc(-c2ccc(CN[C@H](C)c3ccc(C)cc3)o2)ccc1Cl` is recorded as 104% (enzyme activity, inhibitor; 1 µM).
`CNC1C[S+]2CC[S+]3CC[S+](C1)[Ru-4]321([N]=C=S)[n]2c3ccc(OC)cc3c3c4c(c5cc(F)c[n+]1c5c32)C(=O)NC4=O` (centres unmarked) has a remaining binding of 100% (KinomeScan; 0.1 µM; baseline: untreated).
